Published values pooled from the literature.
Each numbered part is a random draw from the data of one study; scales do not carry over between parts. Several values in a cell are separate wells, animals, samples, runs or records.
UniProt P17948, sequence (whole entry, looked up): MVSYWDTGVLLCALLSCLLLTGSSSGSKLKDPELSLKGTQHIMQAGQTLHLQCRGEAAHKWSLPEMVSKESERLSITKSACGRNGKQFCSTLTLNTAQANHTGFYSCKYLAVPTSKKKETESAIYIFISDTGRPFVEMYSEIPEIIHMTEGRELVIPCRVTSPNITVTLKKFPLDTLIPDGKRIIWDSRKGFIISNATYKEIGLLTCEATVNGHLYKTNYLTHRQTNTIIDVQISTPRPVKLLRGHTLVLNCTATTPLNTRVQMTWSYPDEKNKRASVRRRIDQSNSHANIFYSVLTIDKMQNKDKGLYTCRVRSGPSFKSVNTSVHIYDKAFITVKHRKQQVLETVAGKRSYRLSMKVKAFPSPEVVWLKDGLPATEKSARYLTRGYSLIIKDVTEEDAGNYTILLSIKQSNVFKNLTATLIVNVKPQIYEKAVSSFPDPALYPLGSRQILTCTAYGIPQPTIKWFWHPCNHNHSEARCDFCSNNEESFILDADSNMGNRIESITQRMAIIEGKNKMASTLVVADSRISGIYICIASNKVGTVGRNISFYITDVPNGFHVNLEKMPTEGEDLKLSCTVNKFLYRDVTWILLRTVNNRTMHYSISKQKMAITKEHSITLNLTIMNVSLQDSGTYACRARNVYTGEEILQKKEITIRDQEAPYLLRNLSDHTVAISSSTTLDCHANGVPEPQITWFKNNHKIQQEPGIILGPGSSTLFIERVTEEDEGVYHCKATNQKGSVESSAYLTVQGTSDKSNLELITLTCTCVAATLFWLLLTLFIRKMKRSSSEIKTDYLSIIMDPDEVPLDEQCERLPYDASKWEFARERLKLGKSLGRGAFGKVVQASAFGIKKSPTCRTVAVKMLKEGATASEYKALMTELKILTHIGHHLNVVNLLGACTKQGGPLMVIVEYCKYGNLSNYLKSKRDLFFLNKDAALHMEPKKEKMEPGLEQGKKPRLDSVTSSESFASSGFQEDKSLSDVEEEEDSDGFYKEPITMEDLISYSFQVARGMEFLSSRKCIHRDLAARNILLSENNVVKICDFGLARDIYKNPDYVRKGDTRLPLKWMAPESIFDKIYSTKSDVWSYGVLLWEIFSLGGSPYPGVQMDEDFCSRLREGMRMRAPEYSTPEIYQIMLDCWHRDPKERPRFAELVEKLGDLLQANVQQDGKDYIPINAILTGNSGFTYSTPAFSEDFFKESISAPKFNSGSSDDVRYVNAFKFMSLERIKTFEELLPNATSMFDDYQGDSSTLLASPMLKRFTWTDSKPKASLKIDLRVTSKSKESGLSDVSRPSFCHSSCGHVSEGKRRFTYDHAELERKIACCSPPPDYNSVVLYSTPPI
UniProt Q8N5S9, sequence (whole entry, looked up): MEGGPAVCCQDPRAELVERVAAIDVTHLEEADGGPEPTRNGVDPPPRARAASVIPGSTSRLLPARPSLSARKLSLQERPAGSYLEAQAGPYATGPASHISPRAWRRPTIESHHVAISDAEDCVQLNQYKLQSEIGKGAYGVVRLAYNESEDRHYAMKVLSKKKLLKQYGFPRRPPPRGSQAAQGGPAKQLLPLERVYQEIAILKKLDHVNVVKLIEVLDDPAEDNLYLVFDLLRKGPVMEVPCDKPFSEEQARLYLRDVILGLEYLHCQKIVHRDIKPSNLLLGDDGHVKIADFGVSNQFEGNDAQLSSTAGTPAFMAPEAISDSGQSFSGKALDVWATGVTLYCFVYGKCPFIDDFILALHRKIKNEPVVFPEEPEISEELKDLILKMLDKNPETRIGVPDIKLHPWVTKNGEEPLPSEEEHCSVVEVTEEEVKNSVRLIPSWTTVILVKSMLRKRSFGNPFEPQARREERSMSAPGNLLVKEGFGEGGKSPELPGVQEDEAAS
UniProt O15146, sequence (whole entry, looked up): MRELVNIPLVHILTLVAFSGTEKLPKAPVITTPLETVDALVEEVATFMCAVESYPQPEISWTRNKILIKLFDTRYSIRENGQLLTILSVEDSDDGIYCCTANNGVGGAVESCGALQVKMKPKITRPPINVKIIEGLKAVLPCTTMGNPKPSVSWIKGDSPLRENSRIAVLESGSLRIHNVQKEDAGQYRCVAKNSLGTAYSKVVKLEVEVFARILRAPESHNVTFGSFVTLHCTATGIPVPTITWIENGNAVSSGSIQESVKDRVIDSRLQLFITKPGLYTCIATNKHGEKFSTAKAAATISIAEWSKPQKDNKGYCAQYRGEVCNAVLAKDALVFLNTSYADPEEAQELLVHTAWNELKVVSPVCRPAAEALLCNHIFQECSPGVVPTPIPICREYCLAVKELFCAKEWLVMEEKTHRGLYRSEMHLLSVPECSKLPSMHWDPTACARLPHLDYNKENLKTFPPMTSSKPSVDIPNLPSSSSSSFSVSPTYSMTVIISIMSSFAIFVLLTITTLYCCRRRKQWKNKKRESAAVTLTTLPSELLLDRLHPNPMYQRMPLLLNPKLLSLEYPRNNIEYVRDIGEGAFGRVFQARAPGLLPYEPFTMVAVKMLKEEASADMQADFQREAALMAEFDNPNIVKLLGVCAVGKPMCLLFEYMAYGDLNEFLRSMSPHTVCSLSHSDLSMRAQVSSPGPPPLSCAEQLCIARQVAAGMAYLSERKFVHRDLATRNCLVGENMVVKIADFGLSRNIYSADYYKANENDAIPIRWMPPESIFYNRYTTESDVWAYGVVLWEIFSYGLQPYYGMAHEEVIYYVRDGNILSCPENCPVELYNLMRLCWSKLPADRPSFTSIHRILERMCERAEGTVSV
UniProt Q9H0K1, sequence (whole entry, looked up): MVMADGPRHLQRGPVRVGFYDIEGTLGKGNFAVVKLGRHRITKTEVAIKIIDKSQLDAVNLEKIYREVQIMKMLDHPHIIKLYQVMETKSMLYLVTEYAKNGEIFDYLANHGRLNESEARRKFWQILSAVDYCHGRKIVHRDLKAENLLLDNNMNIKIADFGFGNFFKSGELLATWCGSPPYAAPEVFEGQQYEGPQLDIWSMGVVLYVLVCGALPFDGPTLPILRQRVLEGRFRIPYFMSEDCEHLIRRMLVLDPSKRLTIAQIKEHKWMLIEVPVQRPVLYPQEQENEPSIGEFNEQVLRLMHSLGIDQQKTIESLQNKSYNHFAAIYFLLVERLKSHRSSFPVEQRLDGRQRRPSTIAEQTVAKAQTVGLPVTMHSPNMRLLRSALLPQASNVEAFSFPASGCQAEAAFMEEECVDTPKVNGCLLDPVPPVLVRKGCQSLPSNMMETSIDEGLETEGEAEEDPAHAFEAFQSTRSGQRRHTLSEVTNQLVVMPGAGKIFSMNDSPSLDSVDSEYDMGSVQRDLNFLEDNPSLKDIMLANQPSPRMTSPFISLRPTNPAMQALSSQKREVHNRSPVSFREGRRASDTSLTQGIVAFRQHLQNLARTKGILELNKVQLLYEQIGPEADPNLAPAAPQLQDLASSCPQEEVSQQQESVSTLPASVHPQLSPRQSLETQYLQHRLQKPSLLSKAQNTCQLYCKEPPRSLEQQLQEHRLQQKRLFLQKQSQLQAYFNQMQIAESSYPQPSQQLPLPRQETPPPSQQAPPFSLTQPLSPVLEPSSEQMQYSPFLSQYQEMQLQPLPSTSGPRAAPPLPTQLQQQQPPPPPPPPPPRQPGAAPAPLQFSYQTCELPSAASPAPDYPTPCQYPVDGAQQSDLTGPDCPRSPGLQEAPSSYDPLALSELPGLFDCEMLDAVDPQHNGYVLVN
UniProt P49760, sequence (whole entry, looked up): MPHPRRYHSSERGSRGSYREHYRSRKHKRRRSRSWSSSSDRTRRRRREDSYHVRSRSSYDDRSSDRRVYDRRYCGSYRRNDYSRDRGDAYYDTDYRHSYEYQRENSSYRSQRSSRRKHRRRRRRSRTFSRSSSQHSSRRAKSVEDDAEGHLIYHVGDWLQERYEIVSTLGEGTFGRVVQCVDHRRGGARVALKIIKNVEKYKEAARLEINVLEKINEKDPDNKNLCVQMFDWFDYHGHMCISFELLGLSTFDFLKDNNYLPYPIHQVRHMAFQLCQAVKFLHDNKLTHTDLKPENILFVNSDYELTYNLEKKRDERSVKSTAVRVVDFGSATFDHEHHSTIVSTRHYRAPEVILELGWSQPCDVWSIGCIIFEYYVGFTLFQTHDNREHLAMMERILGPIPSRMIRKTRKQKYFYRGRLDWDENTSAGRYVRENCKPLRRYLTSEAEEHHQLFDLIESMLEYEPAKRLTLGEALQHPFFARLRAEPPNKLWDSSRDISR
UniProt Q14012, sequence (whole entry, looked up): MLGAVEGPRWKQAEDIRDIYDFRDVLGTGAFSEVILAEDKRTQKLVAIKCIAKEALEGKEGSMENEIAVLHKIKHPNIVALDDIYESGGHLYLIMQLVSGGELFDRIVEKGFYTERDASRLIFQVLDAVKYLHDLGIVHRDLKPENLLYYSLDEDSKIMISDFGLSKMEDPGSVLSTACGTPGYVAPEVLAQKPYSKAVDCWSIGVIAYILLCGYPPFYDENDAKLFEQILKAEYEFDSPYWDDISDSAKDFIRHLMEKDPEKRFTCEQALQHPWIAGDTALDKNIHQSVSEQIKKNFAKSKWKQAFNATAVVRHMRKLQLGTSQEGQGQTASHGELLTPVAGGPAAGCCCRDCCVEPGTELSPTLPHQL

Set 1 — read-out: enzyme activity; action: inhibitor; tested at: 0.5 µM; relative to: control
SMILES: O=C1NC(=O)c2c1c1c3ccccc3n3c1c1c2c2ccccc2n1[C@H]1CC[C@@H]3O1
target	remaining activity [%]
Dual specificity protein kinase CLK2 (CLK2, Homo sapiens, UniProt P49760)	52.1
Muscle, skeletal receptor tyrosine-protein kinase (MUSK, Homo sapiens, UniProt O15146)	25.8
Calcium/calmodulin-dependent protein kinase kinase 1 (CAMKK1, Homo sapiens, UniProt Q8N5S9)	27.2
Serine/threonine-protein kinase SIK2 (SIK2, Homo sapiens, UniProt Q9H0K1)	33.9
SRSF protein kinase 1 (SRPK1, Homo sapiens, UniProt Q96SB4)	88.1
Calcium/calmodulin-dependent protein kinase type 1 (CAMK1, Homo sapiens, UniProt Q14012)	69.7
Tyrosine-protein kinase JAK1 (JAK1, Homo sapiens, UniProt P23458)	22.2
Vascular endothelial growth factor receptor 1 (FLT1, Homo sapiens, UniProt P17948)	13.3

Set 2 — cell line: HEK-293T; read-out: pseudovirus infection; technique: FDA-approved drug library counter-screen; organism: VSV pseudotyped with VSV-G; tested at: 10 µM; time: 16 h; relative to: vehicle-treated
SMILES	GFP-positive cells [%]
CCC(=O)O[C@]1(C(=O)SCF)[C@H](C)C[C@H]2[C@@H]3C[C@H](F)C4=CC(=O)C=C[C@]4(C)[C@@]3(F)[C@@H](O)C[C@@]21C	112
CC(C)(C)NC[C@H](O)COc1nsnc1N1CCOCC1	96.8
COc1ccc(C(=O)CC(=O)c2ccc(C(C)(C)C)cc2)cc1	113
CN(Cc1cnc2nc(N)nc(N)c2n1)c1ccc(C(=O)N[C@@H](CCC(=O)O)C(=O)O)cc1	16.5
CN(CCOc1ccc(CC2SC(=O)NC2=O)cc1)c1ccccn1 (centres unmarked)	98.6
CCOC(=O)[C@H](CCc1ccccc1)N[C@@H](C)C(=O)N1[C@H](C(=O)O)C[C@@H]2CCC[C@@H]21	111
CCCCN1CCCCC1C(=O)Nc1c(C)cccc1C (centres unmarked)	122

Mixed results
SMILES	tested on	system	setting	measurement	value
CN(C(=O)/C=C/c1ccoc1)[C@@H]1CC[C@@]2(O)[C@H]3Cc4ccc(O)c5c4[C@@]2(CCN3CC2CC2)[C@H]1O5	HaCaT	–	100 µM, 60 h	viability	122%
CN(N=O)C(=O)N[C@@H]1[C@@H](O)[C@H](O)[C@@H](CO)O[C@@H]1O	–	mice, STZ diabetic neuropathy	dose not given, 28 days after STZ	body weight	31 g and 34 g and 37.2 g and 32.9 g and 29 g

Excerpt of the above (mixed results):
SMILES	tested on	system	setting	measurement	value
CN(C(=O)/C=C/c1ccoc1)[C@@H]1CC[C@@]2(O)[C@H]3Cc4ccc(O)c5c4[C@@]2(CCN3CC2CC2)[C@H]1O5	HaCaT	–	100 µM, 60 h	viability	122%
CN(N=O)C(=O)N[C@@H]1[C@@H](O)[C@H](O)[C@@H](CO)O[C@@H]1O	–	mice, STZ diabetic neuropathy	dose not given, 28 days after STZ	body weight	31 g and 34 g and 37.2 g and 32.9 g and 29 g
